# Published values pooled from the literature.
# Parts stem from different laboratories: compare values within a part only. Positions count from the first letter of the parent shown.

# Study 1
# Target: CCND2, cyclin fold, Cln2 fusion (human)
# Technique: yeast growth competition, sequencing
# Sample: yeast
# Setting: weak parent motif
# Relative to: not given
# Reading: higher = stronger binding
# Parent: WEE1 docking peptide (human); HKTFRKLRLFDTP; partner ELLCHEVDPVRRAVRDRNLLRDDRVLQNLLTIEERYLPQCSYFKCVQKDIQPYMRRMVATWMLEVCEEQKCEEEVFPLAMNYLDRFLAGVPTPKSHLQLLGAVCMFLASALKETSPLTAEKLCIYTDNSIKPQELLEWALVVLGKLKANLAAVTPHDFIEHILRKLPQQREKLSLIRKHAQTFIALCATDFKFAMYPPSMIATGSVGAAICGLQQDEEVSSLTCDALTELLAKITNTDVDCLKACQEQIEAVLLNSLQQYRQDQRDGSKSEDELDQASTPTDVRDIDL
Variant,normalised enrichment score
HKTFRKLRLFMTP [D11M],0.099
HKTFRKLRHFDTP [L9H],0.0166
HKTFRKLGLFDTP [R8G],0.0437
HKTFRKLRLFQTP [D11Q],0.858
HKTFRKIRLFDTP [L7I],0.075
HFTFRKLRLFDTP [K2F],-0.437
HKTFRKLRLEDTP [F10E],0.0581
HQTFRKLRLFDTP [K2Q],0.608
HKTHRKLRLFDTP [F4H],0.389
HKTFRDLRLFDTP [K6D],0.669
HKTFRRLRLFDTP [K6R],0.758
HKTFRHLRLFDTP [K6H],0.238
HDTFRKLRLFDTP [K2D],0.238
HKTFRKLRLYDTP [F10Y],-0.233
HKTFRKLILFDTP [R8I],0.561
HLTFRKLRLFDTP [K2L],0.146
HKTFRCLRLFDTP [K6C],0.146
HKTFRKLRLFDTE [P13E],-0.201

# Study 2
# Target: Sal-like protein 4, full length isoform A (SALL4, Homo sapiens, UniProt Q9UJQ4, residues 1-1053)
# UniProt Q9UJQ4, sequence (whole entry, looked up): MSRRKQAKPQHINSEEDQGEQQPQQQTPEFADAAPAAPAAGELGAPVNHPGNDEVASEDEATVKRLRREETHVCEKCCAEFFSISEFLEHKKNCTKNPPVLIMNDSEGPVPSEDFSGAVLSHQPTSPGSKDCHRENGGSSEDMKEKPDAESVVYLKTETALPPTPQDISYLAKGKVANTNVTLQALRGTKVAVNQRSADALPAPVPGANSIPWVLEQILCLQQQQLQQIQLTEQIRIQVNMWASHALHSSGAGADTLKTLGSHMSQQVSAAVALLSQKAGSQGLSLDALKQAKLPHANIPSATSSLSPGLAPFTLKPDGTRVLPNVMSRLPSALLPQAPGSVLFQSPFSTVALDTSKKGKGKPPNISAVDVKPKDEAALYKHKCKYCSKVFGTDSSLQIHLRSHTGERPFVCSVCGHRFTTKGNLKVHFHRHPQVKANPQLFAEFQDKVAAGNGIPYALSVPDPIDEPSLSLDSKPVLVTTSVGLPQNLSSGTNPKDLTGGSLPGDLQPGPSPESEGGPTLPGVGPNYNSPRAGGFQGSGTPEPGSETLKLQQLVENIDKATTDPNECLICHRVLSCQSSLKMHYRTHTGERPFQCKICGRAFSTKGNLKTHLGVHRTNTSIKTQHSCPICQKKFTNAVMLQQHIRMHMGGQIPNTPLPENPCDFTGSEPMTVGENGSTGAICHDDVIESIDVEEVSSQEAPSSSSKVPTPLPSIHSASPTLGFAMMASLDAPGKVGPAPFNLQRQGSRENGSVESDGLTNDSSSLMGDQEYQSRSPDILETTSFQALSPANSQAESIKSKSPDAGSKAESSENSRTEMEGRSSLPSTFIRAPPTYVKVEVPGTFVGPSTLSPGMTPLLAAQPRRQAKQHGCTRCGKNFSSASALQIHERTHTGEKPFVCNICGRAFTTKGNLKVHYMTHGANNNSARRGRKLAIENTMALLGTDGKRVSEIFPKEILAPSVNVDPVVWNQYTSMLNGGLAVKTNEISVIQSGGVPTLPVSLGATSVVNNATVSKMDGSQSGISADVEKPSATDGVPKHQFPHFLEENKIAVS
# Technique: universal PBM
# Molecule type: double-stranded DNA, one strand shown
# Sample: in vitro
# Tested at: 600 nM
# Setting: 8-mer, flanks averaged, mean of replicates
# Reading: higher = stronger binding
Strand,E-score
AACCTAAG,-0.0224
ATGTGAAT,0.224
GAACTCGA,-0.112
GGTACCTA,-0.144
AGCTGTAG,-0.0241
CCTTCGAA,-0.117
CCCAGCGG,-0.373
ATTAAGCG,0.1
ATGCTCGA,0.0856
CCGATCAC,-0.0404
GGCTATGA,0.0148
AAGAGTGT,0.0364
CATCGCGG,-0.201
CAGTGATA,0.13
ATATTAAG,0.398
AGTATGCG,-0.101
AGAGTACT,0.0799
CAGGTAAC,-0.0565
CCCGTGGA,-0.284

# Study 3
# Target: ABI1, truncated, D143A, DHFR fusion (Arabidopsis thaliana)
# Technique: DHFR PCA, deep sequencing
# Sample: yeast
# Setting: methotrexate growth selection, single substitutions
# Added: (+)-ABA 2500 µM
# Relative to: wild-type fitted maximum
# Reading: higher = stronger binding
# Parent: PYL1, truncated, DHFR fusion (Arabidopsis thaliana); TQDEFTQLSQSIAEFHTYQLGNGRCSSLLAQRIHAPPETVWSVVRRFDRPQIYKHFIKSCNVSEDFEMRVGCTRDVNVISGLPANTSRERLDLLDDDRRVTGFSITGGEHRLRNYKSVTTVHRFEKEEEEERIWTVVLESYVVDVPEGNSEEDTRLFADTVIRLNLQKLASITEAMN
Variant,relative binding score
I105M,89.1%
A35I,76.4%
L20S,102%
I133Q,103%
S27G,98.3%
L8P,79.4%
S87Y,21.2%
G148V,79.8%
R111L,86.2%
P146N,78.2%
G148H,90.8%
R99W,101%
L82Q,81%
R24D,99.1%
Q19M,95.5%

# Other studies, line by line
Substance,target,test,test system,conditions,how to read,endpoint,result
"PhoQ, residues 284 288 289 292 302 303 AEGLLW","PhoP, residues 12 14 15 18 19 GHCSL (Escherichia coli, UniProt P23836)","Sort-seq, refers to: YFP reporter",E. coli,"PhoQ-PhoP variant library, added: 10 µM Mg2+","relative to: high Mg2+ state, higher = stronger signaling",fold induction,3.77

# Repeated from above (study 1):
Variant,normalised enrichment score
HKTFRDLRLFDTP [K6D],0.669
HKTFRRLRLFDTP [K6R],0.758
HKTFRHLRLFDTP [K6H],0.238
HDTFRKLRLFDTP [K2D],0.238
